{"data": "Experimental data from different studies", "note": "Numbered parts are unrelated; each lists some results of a single study.", "UniProt P07333, sequence (whole entry, looked up)": "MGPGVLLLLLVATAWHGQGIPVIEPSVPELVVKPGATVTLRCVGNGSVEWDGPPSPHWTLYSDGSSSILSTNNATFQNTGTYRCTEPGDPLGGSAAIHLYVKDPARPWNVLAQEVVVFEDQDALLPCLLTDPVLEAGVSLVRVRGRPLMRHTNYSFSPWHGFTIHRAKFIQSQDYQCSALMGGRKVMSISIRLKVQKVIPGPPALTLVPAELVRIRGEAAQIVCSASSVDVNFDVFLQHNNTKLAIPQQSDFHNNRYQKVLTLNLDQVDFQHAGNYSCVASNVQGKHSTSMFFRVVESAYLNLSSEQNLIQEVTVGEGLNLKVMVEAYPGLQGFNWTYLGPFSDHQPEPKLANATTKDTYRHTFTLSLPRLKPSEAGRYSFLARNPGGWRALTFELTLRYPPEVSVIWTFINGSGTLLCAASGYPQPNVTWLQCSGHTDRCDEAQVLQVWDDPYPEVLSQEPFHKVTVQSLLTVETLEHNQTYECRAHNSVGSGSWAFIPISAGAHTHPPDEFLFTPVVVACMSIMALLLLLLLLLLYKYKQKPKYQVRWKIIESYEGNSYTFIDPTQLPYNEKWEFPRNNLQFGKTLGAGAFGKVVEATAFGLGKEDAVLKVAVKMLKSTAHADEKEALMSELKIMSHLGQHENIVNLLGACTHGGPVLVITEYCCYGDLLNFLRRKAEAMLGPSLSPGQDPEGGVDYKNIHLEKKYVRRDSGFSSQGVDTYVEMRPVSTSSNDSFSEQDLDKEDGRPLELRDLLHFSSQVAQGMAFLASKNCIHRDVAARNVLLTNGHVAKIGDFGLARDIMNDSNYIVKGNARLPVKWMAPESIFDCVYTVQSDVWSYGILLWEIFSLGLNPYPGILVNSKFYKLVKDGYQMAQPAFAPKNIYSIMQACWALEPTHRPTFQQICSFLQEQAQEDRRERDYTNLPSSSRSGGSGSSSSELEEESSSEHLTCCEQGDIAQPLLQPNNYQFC", "UniProt Q04759, sequence (whole entry, looked up)": "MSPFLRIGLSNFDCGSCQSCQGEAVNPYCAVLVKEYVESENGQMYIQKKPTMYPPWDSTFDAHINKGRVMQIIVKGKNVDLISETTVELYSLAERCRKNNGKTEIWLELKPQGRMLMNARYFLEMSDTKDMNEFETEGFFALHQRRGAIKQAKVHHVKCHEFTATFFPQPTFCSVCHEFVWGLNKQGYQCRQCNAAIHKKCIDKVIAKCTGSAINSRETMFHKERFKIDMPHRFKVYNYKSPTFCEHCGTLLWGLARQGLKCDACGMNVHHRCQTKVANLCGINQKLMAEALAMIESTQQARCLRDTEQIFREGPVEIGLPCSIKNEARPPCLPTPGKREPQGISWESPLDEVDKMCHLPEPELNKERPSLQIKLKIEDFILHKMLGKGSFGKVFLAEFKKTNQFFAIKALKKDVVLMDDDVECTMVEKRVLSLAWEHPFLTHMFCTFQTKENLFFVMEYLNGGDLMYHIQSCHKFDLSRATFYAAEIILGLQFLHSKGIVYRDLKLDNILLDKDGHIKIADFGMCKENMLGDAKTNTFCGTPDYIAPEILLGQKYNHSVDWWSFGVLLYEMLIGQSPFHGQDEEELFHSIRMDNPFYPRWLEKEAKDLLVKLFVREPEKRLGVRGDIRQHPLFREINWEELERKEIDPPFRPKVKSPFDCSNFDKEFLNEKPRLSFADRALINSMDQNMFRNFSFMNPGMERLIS", "UniProt Q96SB4, sequence (whole entry, looked up)": "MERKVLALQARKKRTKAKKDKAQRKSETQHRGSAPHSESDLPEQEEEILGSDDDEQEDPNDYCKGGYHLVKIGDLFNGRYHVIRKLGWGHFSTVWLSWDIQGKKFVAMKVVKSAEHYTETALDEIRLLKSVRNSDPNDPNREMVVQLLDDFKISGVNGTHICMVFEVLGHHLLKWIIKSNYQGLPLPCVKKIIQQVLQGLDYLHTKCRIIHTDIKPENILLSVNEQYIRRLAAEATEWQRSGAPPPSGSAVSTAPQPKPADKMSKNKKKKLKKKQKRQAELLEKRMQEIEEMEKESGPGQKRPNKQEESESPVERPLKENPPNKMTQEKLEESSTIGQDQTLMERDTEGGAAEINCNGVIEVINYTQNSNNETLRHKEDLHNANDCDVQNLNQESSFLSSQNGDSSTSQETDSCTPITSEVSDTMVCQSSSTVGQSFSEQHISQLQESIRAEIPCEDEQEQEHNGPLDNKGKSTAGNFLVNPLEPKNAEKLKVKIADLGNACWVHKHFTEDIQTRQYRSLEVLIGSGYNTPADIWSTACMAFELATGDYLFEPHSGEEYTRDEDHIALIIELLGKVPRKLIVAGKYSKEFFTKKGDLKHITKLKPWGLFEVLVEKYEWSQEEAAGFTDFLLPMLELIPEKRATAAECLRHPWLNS", "UniProt P36896, sequence (whole entry, looked up)": "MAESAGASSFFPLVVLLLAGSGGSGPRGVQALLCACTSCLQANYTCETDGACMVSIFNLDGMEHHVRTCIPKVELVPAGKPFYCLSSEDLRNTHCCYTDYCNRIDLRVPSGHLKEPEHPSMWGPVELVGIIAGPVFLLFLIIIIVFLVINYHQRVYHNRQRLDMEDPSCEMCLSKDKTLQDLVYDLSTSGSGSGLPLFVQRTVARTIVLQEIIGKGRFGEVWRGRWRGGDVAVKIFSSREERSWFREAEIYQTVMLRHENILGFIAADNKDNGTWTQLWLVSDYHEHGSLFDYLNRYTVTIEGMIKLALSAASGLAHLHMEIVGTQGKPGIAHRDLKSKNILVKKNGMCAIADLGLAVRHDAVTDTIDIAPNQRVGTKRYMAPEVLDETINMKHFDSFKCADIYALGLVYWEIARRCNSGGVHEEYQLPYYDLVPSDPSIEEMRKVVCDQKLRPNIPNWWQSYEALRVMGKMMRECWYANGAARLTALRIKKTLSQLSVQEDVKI", "UniProt P42680, sequence (whole entry, looked up)": "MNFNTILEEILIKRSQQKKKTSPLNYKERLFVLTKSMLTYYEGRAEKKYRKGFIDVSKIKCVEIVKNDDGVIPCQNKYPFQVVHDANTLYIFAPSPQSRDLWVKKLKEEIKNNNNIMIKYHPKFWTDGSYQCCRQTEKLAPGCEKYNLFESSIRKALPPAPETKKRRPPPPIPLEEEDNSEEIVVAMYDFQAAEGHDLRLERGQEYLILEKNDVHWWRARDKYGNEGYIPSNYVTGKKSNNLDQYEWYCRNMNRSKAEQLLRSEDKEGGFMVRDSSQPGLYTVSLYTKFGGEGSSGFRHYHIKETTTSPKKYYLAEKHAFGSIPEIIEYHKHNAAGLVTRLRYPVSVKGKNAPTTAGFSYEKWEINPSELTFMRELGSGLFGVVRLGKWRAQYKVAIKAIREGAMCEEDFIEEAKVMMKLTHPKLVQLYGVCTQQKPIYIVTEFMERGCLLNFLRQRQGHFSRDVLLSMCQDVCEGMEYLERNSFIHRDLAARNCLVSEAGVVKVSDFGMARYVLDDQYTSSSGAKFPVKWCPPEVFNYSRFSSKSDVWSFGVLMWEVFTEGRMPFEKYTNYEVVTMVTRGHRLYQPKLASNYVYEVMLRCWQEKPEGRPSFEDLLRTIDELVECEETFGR", "UniProt P23458, sequence (whole entry, looked up)": "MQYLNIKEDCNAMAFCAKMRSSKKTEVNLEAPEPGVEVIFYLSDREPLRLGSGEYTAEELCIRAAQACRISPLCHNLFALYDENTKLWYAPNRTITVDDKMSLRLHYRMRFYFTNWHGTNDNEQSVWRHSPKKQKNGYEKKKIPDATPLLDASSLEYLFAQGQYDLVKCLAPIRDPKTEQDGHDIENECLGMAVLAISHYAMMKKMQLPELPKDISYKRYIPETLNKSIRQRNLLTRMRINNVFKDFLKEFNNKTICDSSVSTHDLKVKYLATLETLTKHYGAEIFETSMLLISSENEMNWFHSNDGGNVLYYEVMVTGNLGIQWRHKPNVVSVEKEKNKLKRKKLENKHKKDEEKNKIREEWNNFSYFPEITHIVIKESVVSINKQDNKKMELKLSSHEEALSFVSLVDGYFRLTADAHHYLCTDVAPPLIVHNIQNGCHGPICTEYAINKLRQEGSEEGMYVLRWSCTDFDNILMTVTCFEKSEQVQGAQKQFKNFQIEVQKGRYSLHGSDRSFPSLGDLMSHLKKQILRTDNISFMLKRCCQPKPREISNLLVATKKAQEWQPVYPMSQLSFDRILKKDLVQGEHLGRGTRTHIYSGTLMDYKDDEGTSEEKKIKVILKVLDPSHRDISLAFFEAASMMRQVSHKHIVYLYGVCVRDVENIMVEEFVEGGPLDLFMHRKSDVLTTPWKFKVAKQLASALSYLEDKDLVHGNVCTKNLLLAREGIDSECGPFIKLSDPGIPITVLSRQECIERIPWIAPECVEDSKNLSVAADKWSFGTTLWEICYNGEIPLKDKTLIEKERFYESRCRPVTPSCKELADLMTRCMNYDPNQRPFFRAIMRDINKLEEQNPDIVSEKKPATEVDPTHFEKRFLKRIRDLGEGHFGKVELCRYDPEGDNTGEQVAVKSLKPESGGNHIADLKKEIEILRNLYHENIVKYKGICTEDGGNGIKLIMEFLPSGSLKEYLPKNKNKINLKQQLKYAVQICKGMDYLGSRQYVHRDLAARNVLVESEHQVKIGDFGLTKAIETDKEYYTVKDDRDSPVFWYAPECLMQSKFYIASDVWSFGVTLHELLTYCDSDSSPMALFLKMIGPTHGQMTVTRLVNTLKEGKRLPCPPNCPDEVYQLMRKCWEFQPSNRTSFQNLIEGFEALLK", "UniProt P49674, sequence (whole entry, looked up)": "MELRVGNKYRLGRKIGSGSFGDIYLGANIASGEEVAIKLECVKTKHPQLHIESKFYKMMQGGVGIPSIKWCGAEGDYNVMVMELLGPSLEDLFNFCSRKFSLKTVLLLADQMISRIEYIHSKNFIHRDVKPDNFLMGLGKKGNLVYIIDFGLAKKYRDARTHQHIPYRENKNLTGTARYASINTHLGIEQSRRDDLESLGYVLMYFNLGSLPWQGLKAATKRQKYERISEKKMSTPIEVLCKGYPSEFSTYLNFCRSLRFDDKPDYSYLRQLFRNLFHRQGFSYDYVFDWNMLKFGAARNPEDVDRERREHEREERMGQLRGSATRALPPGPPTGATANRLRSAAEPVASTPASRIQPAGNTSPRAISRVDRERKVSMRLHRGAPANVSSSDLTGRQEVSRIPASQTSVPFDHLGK"}
{"data": "Sample 1", "SMILES": "O=C1NC(=O)c2c1c1c3ccccc3[nH]c1n1cncc21", "effect on": "enzyme activity", "mode": "inhibitor", "concentration": "0.5 µM", "baseline": "control"}
{"target": "CSNK1D (Homo sapiens, UniProt P48730)", "remaining activity [%]": 17.2}
{"target": "CLK2 (Homo sapiens, UniProt P49760)", "remaining activity [%]": 94.7}
{"target": "CAMKK1 (Homo sapiens, UniProt Q8N5S9)", "remaining activity [%]": 63.5}
{"target": "CLK1 (Homo sapiens, UniProt P49759)", "remaining activity [%]": 84}
{"target": "SGK2 (Homo sapiens, UniProt Q9HBY8)", "remaining activity [%]": 75.3}
{"target": "PAK1 (Homo sapiens, UniProt Q13153)", "remaining activity [%]": 93.9}
{"target": "IGF1R (Homo sapiens, UniProt P08069)", "remaining activity [%]": 76.8}
{"target": "TEC (Homo sapiens, UniProt P42680)", "remaining activity [%]": 96.7}
{"target": "JAK1 (Homo sapiens, UniProt P23458)", "remaining activity [%]": 102}
{"target": "PRKCQ (Homo sapiens, UniProt Q04759)", "remaining activity [%]": 88.9}
{"target": "SIK2 (Homo sapiens, UniProt Q9H0K1)", "remaining activity [%]": 91.9}
{"target": "TYRO3 (Homo sapiens, UniProt Q06418)", "remaining activity [%]": 88.8}
{"target": "FLT1 (Homo sapiens, UniProt P17948)", "remaining activity [%]": 58}
{"target": "CAMK1 (Homo sapiens, UniProt Q14012)", "remaining activity [%]": 83.3}
{"target": "CSNK1E (Homo sapiens, UniProt P49674)", "remaining activity [%]": 18.9}
{"target": "Cyclin-dependent kinase 2, with cyclin E (CDK2, Homo sapiens, UniProt P24941)", "remaining activity [%]": 66.5}
{"target": "SRPK1 (Homo sapiens, UniProt Q96SB4)", "remaining activity [%]": 95.4}
{"data": "Sample 2", "SMILES": "CC(C)n1cnc(-c2ccc(F)cc2)c1-c1ncc(C(=O)Nc2ccc(N3CCN(C)CC3)cc2)[nH]1", "method": "phase 2a clinical trial", "species": "patients with idiopathic pulmonary fibrosis"}
{"measured": "electrocardiogram high voltage", "dose": "dose not given", "setting": "Grade 3, all drug arms total", "patients with treatment-emergent adverse events": "0%"}
{"measured": "C-reactive protein increased", "dose": "60 mg once daily", "setting": "Grade 3", "patients with treatment-emergent adverse events": "0%"}
{"measured": "drug-induced liver injury", "dose": "60 mg once daily", "setting": "Grade 4", "patients with treatment-emergent adverse events": "0%"}
{"measured": "interstitial lung disease", "dose": "60 mg once daily", "setting": "Grade 2", "patients with treatment-emergent adverse events": "0%"}
{"data": "Sample 3", "Compound": "CCS(=O)(=O)c1cc2cc(C[C@](O)(CC(C)(C)c3ccc(F)cc3C(N)=O)C(F)(F)F)[nH]c2cn1", "effect on": "cell-free assay", "method": "competition with immobilised ligand", "concentration": "1 µM"}
{"target": "Myosin-IIIb (MYO3B, Homo sapiens, UniProt Q8WXR4)", "remaining binding [%]": 100}
{"target": "PIK3CA (Homo sapiens, UniProt P42336)", "remaining binding [%]": 81}
{"target": "MAPK7 (Homo sapiens, UniProt Q13164)", "remaining binding [%]": 97}
{"target": "CDK15 (Homo sapiens, UniProt Q96Q40)", "remaining binding [%]": 88}
{"target": "Aurora kinase B (AURKB, Homo sapiens, UniProt Q96GD4)", "remaining binding [%]": 92}
{"target": "LATS1 (Homo sapiens, UniProt O95835)", "remaining binding [%]": 98}
{"target": "ACVR1B (Homo sapiens, UniProt P36896)", "remaining binding [%]": 100}
{"target": "Macrophage colony-stimulating factor 1 receptor, autoinhibited (CSF1R, Homo sapiens, UniProt P07333)", "remaining binding [%]": 100}
{"target": "NEK3 (Homo sapiens, UniProt P51956)", "remaining binding [%]": 100}
{"target": "RIPK4 (Homo sapiens, UniProt P57078)", "remaining binding [%]": 93}
{"target": "NEK2 (Homo sapiens, UniProt P51955)", "remaining binding [%]": 100}
{"target": "HIPK3 (Homo sapiens, UniProt Q9H422)", "remaining binding [%]": 100}
{"target": "CSF1R (Homo sapiens, UniProt P07333)", "remaining binding [%]": 100}
{"target": "MAK (Homo sapiens, UniProt P20794)", "remaining binding [%]": 100}
{"target": "SGK1 (Homo sapiens, UniProt O00141)", "remaining binding [%]": 100}
{"data": "Single results of other studies"}
{"Structure (SMILES)": "CN(C(=O)c1ccn2ncc(-c3ccc(C(N)=O)cc3)c2c1)c1ccc(C#N)cn1", "target": "Phosphatidylinositol 4-kinase (Cryptosporidium parvum, UniProt Q5CVD3)", "effect on": "enzyme activity", "mode": "inhibitor", "method": "ADP-Glo", "setting": "wild type", "endpoint": "IC50", "value": "14.8 nM"}
{"note": "For quick reference, copied from above (sample 1):"}
{"target": "TEC (Homo sapiens, UniProt P42680)", "remaining activity [%]": 96.7}
{"target": "JAK1 (Homo sapiens, UniProt P23458)", "remaining activity [%]": 102}
{"target": "PRKCQ (Homo sapiens, UniProt Q04759)", "remaining activity [%]": 88.9}
{"target": "SIK2 (Homo sapiens, UniProt Q9H0K1)", "remaining activity [%]": 91.9}
{"target": "TYRO3 (Homo sapiens, UniProt Q06418)", "remaining activity [%]": 88.8}
